Published values gathered from unrelated publications.
A part holds a random share of what one study measured. Values joined by “and” are separate records of one study, mostly repeats; a detail may differ.
UniProt Q9NRM7, sequence (whole entry, looked up): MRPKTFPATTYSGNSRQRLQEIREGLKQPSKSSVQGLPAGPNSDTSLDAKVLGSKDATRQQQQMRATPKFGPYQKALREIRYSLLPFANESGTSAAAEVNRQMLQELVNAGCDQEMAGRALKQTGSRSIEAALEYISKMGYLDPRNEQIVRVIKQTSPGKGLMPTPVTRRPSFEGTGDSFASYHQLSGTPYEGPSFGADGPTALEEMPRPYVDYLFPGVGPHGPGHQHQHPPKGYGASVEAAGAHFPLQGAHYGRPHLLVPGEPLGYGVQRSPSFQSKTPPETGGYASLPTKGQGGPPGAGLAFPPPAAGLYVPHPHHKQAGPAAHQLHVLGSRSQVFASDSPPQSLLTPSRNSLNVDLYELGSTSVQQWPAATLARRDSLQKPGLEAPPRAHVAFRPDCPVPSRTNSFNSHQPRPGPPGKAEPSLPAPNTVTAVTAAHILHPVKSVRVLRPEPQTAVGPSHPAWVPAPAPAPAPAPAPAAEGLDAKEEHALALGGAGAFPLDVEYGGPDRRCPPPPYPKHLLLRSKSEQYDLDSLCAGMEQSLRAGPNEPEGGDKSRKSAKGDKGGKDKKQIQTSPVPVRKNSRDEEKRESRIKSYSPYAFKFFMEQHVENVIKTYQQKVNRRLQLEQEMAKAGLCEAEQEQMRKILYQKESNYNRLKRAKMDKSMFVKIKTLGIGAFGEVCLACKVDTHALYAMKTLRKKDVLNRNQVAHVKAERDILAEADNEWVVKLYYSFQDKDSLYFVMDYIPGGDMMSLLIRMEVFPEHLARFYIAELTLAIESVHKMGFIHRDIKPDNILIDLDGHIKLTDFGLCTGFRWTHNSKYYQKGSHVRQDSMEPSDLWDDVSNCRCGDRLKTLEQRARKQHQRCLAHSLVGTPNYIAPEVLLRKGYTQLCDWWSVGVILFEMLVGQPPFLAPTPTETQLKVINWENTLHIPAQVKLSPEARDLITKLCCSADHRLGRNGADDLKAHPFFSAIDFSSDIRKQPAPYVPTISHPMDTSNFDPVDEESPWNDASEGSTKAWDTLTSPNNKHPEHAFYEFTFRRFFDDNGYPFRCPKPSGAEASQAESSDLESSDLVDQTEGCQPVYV
UniProt P29597, sequence (whole entry, looked up): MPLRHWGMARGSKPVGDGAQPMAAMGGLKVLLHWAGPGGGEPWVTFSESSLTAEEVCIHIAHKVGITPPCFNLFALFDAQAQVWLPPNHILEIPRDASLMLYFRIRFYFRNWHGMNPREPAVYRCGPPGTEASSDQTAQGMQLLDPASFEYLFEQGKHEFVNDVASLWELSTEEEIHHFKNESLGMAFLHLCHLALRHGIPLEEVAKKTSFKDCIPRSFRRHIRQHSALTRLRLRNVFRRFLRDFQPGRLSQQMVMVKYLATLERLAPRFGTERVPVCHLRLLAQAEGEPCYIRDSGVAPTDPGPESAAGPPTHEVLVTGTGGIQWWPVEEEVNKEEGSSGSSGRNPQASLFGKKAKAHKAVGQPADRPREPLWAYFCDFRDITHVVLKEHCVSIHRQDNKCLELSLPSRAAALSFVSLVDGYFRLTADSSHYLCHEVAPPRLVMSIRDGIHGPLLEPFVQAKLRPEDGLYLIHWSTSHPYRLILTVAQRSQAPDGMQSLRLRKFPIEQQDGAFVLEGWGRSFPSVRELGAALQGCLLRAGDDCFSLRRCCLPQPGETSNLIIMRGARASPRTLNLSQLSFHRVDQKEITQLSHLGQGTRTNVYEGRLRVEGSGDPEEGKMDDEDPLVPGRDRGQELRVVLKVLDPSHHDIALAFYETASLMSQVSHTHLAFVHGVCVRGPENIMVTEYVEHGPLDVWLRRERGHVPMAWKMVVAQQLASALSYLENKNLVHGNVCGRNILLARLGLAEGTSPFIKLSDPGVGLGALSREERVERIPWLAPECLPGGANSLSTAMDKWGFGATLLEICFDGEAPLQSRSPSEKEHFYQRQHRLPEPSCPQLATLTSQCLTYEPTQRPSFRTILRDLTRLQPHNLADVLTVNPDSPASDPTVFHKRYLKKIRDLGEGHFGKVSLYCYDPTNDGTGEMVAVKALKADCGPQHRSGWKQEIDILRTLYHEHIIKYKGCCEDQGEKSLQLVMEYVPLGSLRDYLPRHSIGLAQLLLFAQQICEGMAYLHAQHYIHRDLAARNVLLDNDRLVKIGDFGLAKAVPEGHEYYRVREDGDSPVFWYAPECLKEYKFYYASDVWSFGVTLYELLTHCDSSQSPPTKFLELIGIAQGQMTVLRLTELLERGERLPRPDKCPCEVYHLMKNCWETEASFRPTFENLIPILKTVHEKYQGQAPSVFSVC
UniProt Q9Y2H1, sequence (whole entry, looked up): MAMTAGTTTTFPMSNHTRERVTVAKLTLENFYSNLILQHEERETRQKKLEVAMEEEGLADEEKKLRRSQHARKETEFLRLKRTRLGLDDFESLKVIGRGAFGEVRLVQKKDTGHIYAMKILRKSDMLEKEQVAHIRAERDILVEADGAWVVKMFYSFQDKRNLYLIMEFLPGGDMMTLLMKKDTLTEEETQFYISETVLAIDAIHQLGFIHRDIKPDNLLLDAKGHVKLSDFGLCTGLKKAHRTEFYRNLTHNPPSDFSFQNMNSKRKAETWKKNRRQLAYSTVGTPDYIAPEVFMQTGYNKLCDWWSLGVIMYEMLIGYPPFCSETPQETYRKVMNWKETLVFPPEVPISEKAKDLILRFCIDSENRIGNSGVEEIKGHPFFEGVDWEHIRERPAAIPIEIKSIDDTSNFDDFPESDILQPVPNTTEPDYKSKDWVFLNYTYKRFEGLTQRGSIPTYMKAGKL
UniProt Q12866, sequence (whole entry, looked up): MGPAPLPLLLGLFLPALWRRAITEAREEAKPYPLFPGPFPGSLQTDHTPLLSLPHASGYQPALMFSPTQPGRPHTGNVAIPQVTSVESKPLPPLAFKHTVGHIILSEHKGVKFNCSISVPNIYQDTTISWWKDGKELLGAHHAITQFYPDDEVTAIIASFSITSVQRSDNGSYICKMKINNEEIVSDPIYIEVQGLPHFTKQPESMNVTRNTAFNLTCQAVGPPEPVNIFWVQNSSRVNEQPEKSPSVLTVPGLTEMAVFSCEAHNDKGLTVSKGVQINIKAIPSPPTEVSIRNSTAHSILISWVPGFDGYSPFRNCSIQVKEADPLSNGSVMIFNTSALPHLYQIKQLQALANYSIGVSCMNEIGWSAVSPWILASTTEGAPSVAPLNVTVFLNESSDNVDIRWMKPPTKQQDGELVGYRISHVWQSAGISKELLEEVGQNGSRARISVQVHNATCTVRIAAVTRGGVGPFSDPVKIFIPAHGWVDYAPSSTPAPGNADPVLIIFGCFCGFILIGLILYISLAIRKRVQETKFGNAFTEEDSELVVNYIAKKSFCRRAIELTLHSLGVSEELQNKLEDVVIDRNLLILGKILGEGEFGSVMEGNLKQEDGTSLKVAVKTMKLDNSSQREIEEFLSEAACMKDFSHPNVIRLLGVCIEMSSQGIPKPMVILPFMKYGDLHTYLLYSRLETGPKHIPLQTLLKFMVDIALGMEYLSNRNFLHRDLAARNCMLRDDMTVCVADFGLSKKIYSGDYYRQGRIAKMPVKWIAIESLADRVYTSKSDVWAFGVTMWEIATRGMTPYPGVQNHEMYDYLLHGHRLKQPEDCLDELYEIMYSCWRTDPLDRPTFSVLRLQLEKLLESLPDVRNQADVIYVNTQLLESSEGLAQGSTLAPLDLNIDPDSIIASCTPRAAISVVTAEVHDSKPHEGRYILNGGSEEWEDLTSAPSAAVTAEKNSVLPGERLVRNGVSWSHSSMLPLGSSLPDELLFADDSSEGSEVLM
UniProt Q13705, sequence (whole entry, looked up): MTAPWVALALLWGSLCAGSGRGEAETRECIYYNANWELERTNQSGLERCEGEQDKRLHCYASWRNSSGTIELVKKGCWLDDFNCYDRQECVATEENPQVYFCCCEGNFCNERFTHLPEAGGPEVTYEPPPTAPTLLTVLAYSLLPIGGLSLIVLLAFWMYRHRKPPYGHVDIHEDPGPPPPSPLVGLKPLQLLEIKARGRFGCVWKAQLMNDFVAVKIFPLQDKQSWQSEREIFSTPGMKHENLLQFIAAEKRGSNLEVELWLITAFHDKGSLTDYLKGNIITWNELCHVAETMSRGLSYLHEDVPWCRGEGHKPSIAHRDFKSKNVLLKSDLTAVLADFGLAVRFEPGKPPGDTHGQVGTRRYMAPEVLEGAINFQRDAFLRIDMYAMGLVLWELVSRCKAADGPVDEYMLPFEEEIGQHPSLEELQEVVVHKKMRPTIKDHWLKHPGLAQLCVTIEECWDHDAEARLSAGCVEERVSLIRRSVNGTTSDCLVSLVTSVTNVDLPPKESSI
UniProt Q8NE63, sequence (whole entry, looked up): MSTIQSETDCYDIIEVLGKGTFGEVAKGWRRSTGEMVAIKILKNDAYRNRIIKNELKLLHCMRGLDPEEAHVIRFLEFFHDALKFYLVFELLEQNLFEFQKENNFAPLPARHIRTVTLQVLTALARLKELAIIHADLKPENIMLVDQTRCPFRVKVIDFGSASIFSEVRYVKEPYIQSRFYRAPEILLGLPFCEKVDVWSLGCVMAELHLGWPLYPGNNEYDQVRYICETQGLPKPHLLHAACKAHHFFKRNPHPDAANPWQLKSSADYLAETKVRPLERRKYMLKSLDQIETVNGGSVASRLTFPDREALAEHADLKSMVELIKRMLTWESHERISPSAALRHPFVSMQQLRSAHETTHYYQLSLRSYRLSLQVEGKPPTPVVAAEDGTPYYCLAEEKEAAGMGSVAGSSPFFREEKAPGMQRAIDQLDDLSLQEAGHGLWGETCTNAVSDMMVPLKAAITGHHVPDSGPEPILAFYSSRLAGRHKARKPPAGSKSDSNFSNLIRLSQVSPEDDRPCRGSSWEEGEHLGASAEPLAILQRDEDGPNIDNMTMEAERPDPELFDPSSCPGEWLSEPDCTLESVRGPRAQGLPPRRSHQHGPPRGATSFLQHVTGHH

Set 1
SMILES: O=C(NCc1ncc(C(F)(F)F)cc1Cl)c1ccc2c(c1)C1(CCS(=O)(=O)CC1)[C@@H](C1CC1)N2S(=O)(=O)c1ccc(F)cc1
Read-out: cell-free assay
Technique: competition with immobilised ligand
Concentration: 1 µM
target	remaining binding [%]
Tyrosine-protein kinase Mer (MERTK, Homo sapiens, UniProt Q12866)	100
Serine/threonine-protein kinase 38-like (STK38L, Homo sapiens, UniProt Q9Y2H1)	94
Serine/threonine-protein kinase LATS2 (LATS2, Homo sapiens, UniProt Q9NRM7)	99
Homeodomain-interacting protein kinase 4 (HIPK4, Homo sapiens, UniProt Q8NE63)	97
Activin receptor type-2B (ACVR2B, Homo sapiens, UniProt Q13705)	100
Serine/threonine-protein kinase Nek10 (NEK10, Homo sapiens, UniProt Q6ZWH5)	83
Non-receptor tyrosine-protein kinase TYK2, JH2 (TYK2, Homo sapiens, UniProt P29597)	73
Receptor-type tyrosine-protein kinase FLT3 (FLT3, Homo sapiens, UniProt P36888, K663Q)	100

Set 2
Host: human
Matrix: microsomes or S9
Concentration: 2 µM
Time: 0.5 h
Structure (SMILES)	remaining compound [%]
COc1ccc(CNC(=O)c2oc3ccc4c(c3c2C)C=CC(C)(C)O4)cc1OC	82.2
Cc1cc(-c2cc(=O)n(Cc3ccc(F)cc3Cl)nc2-c2ccco2)on1	92.3
CCCN(CCC)C(=O)c1cccc(C(=O)NN(Cc2cc(F)cc(F)c2)C(=O)[C@H](NCC(=O)NCc2ccccc2)C(C)C)c1	0.343
COC(=O)c1nc(C2CC(C(C)(C)C)=NO2)cc(NC(C)=O)c1Cl (stereo not drawn)	26.7
CC(=O)N(c1nc(COC(=O)/C=C/c2cnn(C)c2)cs1)c1c(C)cc(C)cc1C	0.441
CC1(C)CC(S(=O)(=O)CC2(C)CC(c3ccc(Br)o3)=NO2)=NO1 (stereo not drawn)	> 99
Nc1nc2n(c1C(=O)c1ccc3c(c1)CCCC3)CCC2	53
Cc1c(O)ccc2c1oc1c(-c3cccnc3O)c3cnn(C(C)C)c3nc12	47.2

Set 3
SMILES: CC(=O)N[C@@H](Cc1c[nH]c2ccccc12)C(=O)N[C@@H](CCC(=O)C=[N+]=[N-])C(=O)OC(C)C
Host: C57BL/6 CES1-/- mice, EL4 tumour
Matrix: EL4 tumour
Route: subcutaneous
Dose: 0.3 mg/kg/day DON equivalent
Time: 5 days
Notes: normalised to tissue mass
Reading: higher = more metabolite
technique	refers to	metabolite peak intensity
UPLC-MS/MS metabolomics	N-acetylphenylalanine	86900 a.u. and 101000 a.u. and 112000 a.u. and 85600 a.u. and 73500 a.u.
LC-MS/MS metabolomics	2-isopropylmalate	1.52e+07 a.u. and 2.65e+06 a.u. and 2.29e+06 a.u. and 5.33e+06 a.u. and 5.32e+06 a.u. and 2.79e+06 a.u.
UPLC-MS/MS metabolomics	N-acetylglutamine	5.16e+06 a.u. and 5.17e+06 a.u. and 4.43e+06 a.u. and 3.15e+06 a.u. and 4.77e+06 a.u. and 4.14e+06 a.u.

Set 4
Organism: Sarcocystis neurona
Read-out: parasite growth
Concentration: 10 µM
Notes: second screen
Reference: untreated
SMILES	log2 fold change
CC(C)c1ccc2c(c1)c(SC(C)(C)C)c(CC(C)(C)C(=O)O)n2Cc1ccc(Cl)cc1	0.00169
Cl.NC1CCN(c2cccc(Cl)n2)CC1	0.3
O=C(O[C@@H]1Cc2c(O)cc(O)cc2O[C@@H]1c1cc(O)c(O)c(O)c1)c1cc(O)c(O)c(O)c1	0.45
CN[C@@H]1[C@H](O)[C@H](NC)[C@H]2O[C@@]3(O)C(=O)C[C@@H](C)O[C@H]3O[C@@H]2[C@H]1O.Cl.Cl	0.39
C[C@]12CCC(=O)C=C1CC[C@@H]1[C@@H]2CC[C@@]2(C)[C@H]1CC[C@]2(O)C(=O)CO	-0.48

For quick reference, copied from above (set 1):
target	remaining binding [%]
Non-receptor tyrosine-protein kinase TYK2, JH2 (TYK2, Homo sapiens, UniProt P29597)	73
